Assay results from different studies.
Each line is one published result; not all experiments were run side by side.
CDK7: Cyclin-dependent kinase 7 (CDK7, Homo sapiens, UniProt P50613)
UniProt P50613, sequence (whole entry, looked up): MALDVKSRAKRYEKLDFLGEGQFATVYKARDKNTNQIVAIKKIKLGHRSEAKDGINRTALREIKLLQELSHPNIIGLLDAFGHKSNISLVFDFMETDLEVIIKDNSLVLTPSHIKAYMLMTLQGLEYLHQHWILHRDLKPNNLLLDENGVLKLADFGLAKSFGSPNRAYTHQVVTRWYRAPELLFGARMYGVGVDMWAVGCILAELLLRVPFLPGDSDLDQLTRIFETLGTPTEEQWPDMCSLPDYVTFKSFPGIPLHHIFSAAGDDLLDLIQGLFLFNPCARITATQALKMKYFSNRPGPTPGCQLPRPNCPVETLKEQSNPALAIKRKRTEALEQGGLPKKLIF

The remaining binding of `Nc1ccc(/C=C/C(=O)N2CCc3c(oc4c(-c5ccc(F)cc5)cc(-c5ccc(C(=O)N6CCC(F)(F)CC6)cn5)cc34)C2)cn1` is reported as 100% (CDK7; binding, competition with immobilised ligand; 1 µM).
For `C=CC(=O)Nc1cc(-c2nn(C3CCC(N4CCN(C(C)=O)CC4)CC3)c3ncnc(N)c23)ccc1Oc1ccccc1` (stereo not drawn), the inhibition was -7% (CDK7; inhibitor, KiNativ profiling; biochemical; 2 µM).
The remaining binding of `CCOC(=O)[C@@H]1Cc2c(cc([N+](=O)[O-])cc2[N+](=O)[O-])[C@H](O)[C@]12C(=O)Nc1ccc(Br)cc12` is reported as 58% (CDK7; binding, competition with immobilised ligand; 0.1 µM).
The remaining activity of `O=C1NC(=O)c2c1c1cc(F)c[n+]3c1c1c2c2cc(O)ccc2[n]1[Ru-4]312([N]=C=S)[S+]3CC[S+]1CC[S+]2CC3` (stereo not drawn) is reported as 25% (CDK7; enzyme activity; 100 nM, human enzyme, with: 10 µM ATP; relative to: untreated).
`CN(C)[C@H]1C[C@@]23CC[C@@]4(O2)C(=CC[C@]2(C)[C@@H](c5ccc6ccncc6c5)CC[C@H]24)C=C3[C@@H](O)[C@@H]1O` gave an inhibition of 4.8% (CDK7; ATP probe labelling, inhibitor, KiNativ profiling; 0.1 µM).
`C[C@H](NCc1ccc(-c2ccc(C(F)(F)F)cc2)cc1)C(N)=O` gave an inhibition of 3% (CDK7; cell-free assay, competition with immobilised ligand; 1 µM).
For `CCN1CCN(Cc2ccc(C(=O)Nc3ccc(C)c(NCc4cnc5[nH]ccc5c4OC)c3)cc2C(F)(F)F)CC1`, the remaining binding was 97% (CDK7; binding, competition with immobilised ligand; 1 µM).
The inhibition of `CC(C)[C@H]1NC(=O)C[C@H]2/C=C/CCSSC[C@@H](NC1=O)C(=O)N[C@H](Cc1cccc3ccccc13)C(=O)NCC(=O)O2` is reported as 16.7% (Cyclin-dependent kinase 7, with cyclin H (CDK7, Homo sapiens, UniProt P50613); enzyme activity, inhibitor; 10 µM).
The inhibition of `CS(C)(=O)=Nc1ccc(-c2ccc(-c3nc4cc(O[C@@H]5CO[C@H]6[C@@H]5OC[C@H]6O)[nH]c4cc3F)cc2)cc1` is reported as 0% (CDK7; enzyme activity, inhibitor; 10 µM).

Repeated from above:
For `CCN1CCN(Cc2ccc(C(=O)Nc3ccc(C)c(NCc4cnc5[nH]ccc5c4OC)c3)cc2C(F)(F)F)CC1`, the remaining binding was 97% (CDK7; binding, competition with immobilised ligand; 1 µM).
